Measured values pooled from the literature.
Parts stem from different laboratories: compare values within a part only. “And” joins repeats or separate records; there may be more than shown.
Chain of UniProt P35916 (whole entry, looked up): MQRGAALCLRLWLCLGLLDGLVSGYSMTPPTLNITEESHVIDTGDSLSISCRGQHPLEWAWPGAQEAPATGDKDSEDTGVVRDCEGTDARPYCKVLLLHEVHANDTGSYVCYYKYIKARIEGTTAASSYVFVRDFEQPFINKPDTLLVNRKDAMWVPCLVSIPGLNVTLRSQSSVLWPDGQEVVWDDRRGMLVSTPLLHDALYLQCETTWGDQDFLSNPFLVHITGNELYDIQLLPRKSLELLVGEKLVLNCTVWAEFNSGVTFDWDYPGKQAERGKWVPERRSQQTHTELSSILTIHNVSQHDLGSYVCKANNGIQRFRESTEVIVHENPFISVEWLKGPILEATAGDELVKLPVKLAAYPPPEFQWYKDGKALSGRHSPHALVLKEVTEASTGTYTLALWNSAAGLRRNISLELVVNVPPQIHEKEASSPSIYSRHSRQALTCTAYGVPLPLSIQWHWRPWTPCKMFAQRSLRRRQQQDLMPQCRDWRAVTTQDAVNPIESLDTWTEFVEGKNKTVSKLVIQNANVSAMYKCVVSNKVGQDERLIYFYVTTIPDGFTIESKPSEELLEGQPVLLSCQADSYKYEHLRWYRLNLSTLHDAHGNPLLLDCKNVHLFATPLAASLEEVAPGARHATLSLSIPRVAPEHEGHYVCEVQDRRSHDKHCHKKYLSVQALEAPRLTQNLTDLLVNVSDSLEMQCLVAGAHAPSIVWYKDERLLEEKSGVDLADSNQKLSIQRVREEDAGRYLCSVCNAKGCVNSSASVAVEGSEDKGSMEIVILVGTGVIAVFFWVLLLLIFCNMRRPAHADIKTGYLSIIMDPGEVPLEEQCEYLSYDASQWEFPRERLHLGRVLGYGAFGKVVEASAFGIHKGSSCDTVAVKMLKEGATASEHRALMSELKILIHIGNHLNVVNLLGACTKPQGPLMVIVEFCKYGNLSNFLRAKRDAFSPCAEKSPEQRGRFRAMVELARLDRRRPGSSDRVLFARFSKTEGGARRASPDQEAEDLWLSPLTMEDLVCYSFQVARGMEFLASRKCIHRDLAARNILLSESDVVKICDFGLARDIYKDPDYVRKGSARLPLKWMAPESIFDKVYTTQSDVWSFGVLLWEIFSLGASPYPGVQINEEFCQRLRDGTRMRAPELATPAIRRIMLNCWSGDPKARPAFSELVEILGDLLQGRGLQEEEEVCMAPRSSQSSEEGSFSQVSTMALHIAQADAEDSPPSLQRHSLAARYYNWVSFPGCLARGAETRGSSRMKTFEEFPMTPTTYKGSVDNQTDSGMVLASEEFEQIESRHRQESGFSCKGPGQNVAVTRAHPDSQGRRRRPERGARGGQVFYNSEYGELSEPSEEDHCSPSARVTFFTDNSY
Chain of UniProt P61075 (whole entry, looked up): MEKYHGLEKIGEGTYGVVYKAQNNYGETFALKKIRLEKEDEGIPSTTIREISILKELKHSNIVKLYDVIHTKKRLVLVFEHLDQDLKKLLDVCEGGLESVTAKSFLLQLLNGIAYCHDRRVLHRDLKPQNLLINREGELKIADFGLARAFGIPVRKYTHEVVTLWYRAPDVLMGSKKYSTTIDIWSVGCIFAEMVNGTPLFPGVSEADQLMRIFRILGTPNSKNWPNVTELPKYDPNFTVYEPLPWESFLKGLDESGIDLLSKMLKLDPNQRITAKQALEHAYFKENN

Block 1 — cell line: mouse MPNST tumor cells; method: high-content nuclear imaging; refers to: cell number; tested at: 10 µM; time: 12 h; notes: mean of 2 replicates; reference: plate mean; direction: higher = more cells
Structure (SMILES)	nuclei count
CC(=O)Nc1ccc(OCC(O)CNC(C)C)cc1 (centres unmarked)	0.634 z-score
Cc1cc(Nc2cc(Cl)nc(Oc3ccc([N+](=O)[O-])cc3)n2)n[nH]1	-4.02 z-score
CCc1nc(N)nc(N)c1-c1ccc(Cl)cc1	-0.865 z-score and -2.69 z-score
Cc1cc(-c2ccc(CC(=O)Nc3ccc(-c4cccnc4)cc3)cc2)ccn1	3.81 z-score
CSc1nc2ccc3nc(NC(=O)C(c4ccccc4)c4ccccc4)sc3c2s1	0.819 z-score
O=C(Nc1nc2ccc(NC(=O)C34CC5CC(CC(C5)C3)C4)cc2s1)c1ccccc1	-5.84 z-score
Cc1ccc(S(=O)(=O)NC(=O)NN2CCCCCC2)cc1	0.28 z-score

Block 2 — action: inhibitor; tested at: concentration not given; notes: average; with: without ssDNA
Target: DNA polymerase theta, helicase domain (POLQ, Homo sapiens, UniProt O75417)
Chain of UniProt O75417 (whole entry, looked up): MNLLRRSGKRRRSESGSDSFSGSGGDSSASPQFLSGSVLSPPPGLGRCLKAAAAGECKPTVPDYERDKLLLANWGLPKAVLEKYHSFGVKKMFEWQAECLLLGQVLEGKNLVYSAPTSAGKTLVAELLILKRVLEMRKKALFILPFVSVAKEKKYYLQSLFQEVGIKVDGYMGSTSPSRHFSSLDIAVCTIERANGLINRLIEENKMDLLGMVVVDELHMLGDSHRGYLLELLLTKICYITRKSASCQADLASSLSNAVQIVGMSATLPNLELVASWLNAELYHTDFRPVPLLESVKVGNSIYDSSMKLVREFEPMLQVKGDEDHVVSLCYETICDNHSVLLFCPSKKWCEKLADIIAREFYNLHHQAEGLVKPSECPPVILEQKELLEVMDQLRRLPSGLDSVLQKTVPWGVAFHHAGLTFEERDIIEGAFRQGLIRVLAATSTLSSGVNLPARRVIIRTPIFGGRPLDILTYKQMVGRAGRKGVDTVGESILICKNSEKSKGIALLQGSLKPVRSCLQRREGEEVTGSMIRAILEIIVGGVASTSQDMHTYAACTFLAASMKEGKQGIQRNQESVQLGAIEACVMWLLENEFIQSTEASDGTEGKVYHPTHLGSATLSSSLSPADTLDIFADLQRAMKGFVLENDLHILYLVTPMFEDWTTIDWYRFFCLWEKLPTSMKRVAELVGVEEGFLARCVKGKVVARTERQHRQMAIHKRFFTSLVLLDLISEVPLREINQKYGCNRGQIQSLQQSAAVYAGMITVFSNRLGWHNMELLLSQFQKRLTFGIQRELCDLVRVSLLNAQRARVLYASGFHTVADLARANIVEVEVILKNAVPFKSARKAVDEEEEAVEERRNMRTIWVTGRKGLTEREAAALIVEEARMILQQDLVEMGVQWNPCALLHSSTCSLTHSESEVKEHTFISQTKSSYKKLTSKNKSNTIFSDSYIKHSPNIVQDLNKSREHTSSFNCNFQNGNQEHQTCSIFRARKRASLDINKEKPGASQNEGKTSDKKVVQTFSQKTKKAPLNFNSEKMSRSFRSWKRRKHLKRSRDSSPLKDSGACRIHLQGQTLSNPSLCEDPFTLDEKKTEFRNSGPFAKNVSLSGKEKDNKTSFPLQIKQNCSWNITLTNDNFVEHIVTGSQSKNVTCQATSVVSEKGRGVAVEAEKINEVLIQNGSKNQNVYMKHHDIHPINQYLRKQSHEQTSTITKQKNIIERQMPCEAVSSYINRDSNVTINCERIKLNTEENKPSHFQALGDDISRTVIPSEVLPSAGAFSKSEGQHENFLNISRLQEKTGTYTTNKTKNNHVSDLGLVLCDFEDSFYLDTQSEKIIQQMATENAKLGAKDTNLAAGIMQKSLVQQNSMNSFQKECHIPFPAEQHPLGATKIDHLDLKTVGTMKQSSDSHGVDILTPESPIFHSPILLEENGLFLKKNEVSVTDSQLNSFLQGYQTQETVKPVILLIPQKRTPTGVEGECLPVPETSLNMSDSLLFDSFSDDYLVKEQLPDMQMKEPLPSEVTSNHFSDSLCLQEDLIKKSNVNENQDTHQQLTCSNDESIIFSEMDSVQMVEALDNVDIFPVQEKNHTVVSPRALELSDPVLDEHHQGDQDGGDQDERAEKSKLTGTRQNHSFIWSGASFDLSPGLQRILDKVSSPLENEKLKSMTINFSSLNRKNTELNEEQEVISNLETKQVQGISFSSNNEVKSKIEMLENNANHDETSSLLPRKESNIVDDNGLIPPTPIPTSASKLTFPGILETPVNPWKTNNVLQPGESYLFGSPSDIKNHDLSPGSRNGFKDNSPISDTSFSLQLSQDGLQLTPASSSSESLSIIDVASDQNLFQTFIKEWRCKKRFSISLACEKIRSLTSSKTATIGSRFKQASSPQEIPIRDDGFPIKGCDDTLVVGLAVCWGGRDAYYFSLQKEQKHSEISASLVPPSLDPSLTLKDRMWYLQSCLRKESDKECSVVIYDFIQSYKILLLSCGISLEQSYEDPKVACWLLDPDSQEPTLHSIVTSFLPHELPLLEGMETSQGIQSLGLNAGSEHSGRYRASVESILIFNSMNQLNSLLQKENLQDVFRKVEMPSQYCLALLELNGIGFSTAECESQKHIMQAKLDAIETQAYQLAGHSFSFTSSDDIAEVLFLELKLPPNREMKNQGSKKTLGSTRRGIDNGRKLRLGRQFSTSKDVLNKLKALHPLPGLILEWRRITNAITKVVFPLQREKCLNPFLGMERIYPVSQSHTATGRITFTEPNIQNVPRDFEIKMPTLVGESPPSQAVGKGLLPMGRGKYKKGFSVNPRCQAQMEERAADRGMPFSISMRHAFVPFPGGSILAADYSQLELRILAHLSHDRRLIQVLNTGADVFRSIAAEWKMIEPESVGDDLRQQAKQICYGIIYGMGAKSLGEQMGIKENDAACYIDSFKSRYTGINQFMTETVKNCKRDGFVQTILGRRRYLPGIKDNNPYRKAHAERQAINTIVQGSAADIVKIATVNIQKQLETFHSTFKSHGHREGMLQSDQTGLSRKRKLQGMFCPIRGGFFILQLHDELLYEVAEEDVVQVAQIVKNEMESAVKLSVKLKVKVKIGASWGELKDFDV
SMILES	remaining activity [%]
Cc1ccc(C2C=C(c3ccccc3)N=C3N=C(NS(C)(=O)=O)NN32)cc1 (centres unmarked)	89.8
O=C(O)[C@]1(Cc2cccc(Nc3nccs3)n2)CC[C@@H](Oc2cccc(Cl)c2F)CC1	53.4
CSc1ccc(/C=C/c2nc3ccccc3n2S(=O)(=O)c2ccc(Br)cc2)cc1	60.9
Cc1ccc(-c2n[nH]c3c2C(c2ccccc2Cl)N(c2ccc(C(=O)O)cc2)C3=O)cc1 (centres unmarked)	80.3
COc1ccc(C(=O)Nc2noc3ccccc23)cc1	63.4
O=c1[nH]c2cc(Cl)ccc2c(O)c1-c1cccc(Oc2ccccc2)c1	69.6
Cc1ccc(-c2n[nH]c3c2C(c2cccc(O)c2)N(c2ccc(C(=O)O)cc2)C3=O)cc1 (centres unmarked)	61
COc1cccc(C2C3=C(NN/C3=C3/C=CC=CC3=O)C(=O)N2CCc2ccc(OC)c(OC)c2)c1 (centres unmarked)	66.4

Block 3 — effect on: binding; tested at: 1 µM
SMILES: Cc1ccc(NC(=O)c2ccnc(C(F)(F)F)c2)cc1-c1cc(OCCO)nc(N2CCOCC2)c1
target	method	remaining binding
CRK2 (Plasmodium falciparum, UniProt P61075)		93%
SIK2 (Homo sapiens, UniProt Q9H0K1)	competition with immobilised ligand	97%
STK16 (Homo sapiens, UniProt O75716)		100%
PRPF4B (Homo sapiens, UniProt Q13523)		100%
FLT4 (Homo sapiens, UniProt P35916)	competition with immobilised ligand	79%
EPHB1 (Homo sapiens, UniProt P54762)	competition with immobilised ligand	91%
MELK (Homo sapiens, UniProt Q14680)		65%
DAPK2 (Homo sapiens, UniProt Q9UIK4)		100%
MAP3K12 (Homo sapiens, UniProt Q12852)		100%
Ribosomal protein S6 kinase alpha-4, C-terminal kinase domain (RPS6KA4, Homo sapiens, UniProt O75676)	competition with immobilised ligand	100%

Block 4 — effect on: enzyme activity; action: inhibitor; tested at: 0.5 µM; reference: control
Target: Mitogen-activated protein kinase kinase kinase kinase 2 (MAP4K2, Homo sapiens, UniProt Q12851)
Chain of UniProt Q12851 (whole entry, looked up): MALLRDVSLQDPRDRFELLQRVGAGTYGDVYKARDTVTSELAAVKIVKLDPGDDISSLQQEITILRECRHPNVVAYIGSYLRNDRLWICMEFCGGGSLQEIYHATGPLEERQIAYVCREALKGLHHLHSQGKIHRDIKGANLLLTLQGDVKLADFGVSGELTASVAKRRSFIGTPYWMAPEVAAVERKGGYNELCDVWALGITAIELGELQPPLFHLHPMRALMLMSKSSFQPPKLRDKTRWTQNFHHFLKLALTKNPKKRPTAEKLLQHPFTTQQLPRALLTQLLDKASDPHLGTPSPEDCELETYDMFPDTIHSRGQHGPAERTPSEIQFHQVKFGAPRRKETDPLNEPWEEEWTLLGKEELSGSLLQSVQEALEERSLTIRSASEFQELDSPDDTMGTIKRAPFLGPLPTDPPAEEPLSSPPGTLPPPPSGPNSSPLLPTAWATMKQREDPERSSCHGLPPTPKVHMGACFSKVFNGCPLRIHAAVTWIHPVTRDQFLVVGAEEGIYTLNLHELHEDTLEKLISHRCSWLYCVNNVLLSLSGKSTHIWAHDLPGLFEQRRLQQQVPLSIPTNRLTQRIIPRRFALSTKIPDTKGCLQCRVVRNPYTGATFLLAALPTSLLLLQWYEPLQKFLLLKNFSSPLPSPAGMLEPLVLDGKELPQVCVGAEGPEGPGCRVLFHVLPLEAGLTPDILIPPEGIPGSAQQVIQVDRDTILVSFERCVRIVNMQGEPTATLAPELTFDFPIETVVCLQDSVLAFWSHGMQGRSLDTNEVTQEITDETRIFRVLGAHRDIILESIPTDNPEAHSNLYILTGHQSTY
Structure (SMILES)	remaining activity
Cn1sc(=O)n(Cc2ccccc2)c1=O	119%
Cc1ccc(NC(=O)c2ccc(CN3CCN(C)CC3)cc2)cc1Nc1nc(-c2cccnc2)cs1	103%
COc1ccc(C(=O)Nc2sc3c(c2C(N)=O)CCCC3)cc1OC	106%
Cc1ccc(Nc2nccc(N(C)c3ccc4c(C)n(C)nc4c3)n2)cc1S(N)(=O)=O	72.5%
C#Cc1cccc(Nc2ncnc3cc(OCCOC)c(OCCOC)cc23)c1	105%
O=C(O)c1ccc2c3c1cccc3c(=O)n1c3ccccc3nc21	38%
O=C(CCCc1ccc(-c2ccccc2F)cc1)Nc1ccc(O)cc1	104%
O=C1NC(=O)C(c2cn(CCCO)c3ncccc23)=C1c1cnccn1	67.4%
OCC(O)CCON=C1C(c2c(O)[nH]c3ccccc23)=Nc2ccccc21 (centres unmarked)	51.7%
CNC(=O)c1cc(Oc2ccc(NC(=O)Nc3ccc(Cl)c(C(F)(F)F)c3)cc2)ccn1	108%
O=C(Nc1cccc(Nc2cc(Nc3cccc(C(F)(F)F)c3)ncn2)c1)C1CC1	116%
Cn1c2ccccc2c2c3c(c4c5ccccc5n(CCC#N)c4c21)CNC3=O	5.68%
Nc1ncnc2n[nH]c(Nc3ccc(F)cc3)c12	88.9%
CN(C)c1ccc(C=C2C(=O)Nc3ccccc32)cc1	109%
CC(C)[C@H](CO)Nc1nc(Nc2cc(N)cc(Cl)c2)c2ncn(C(C)C)c2n1	90.7%
COc1ccc(OC)c2c(=S)c3ccccc3[nH]c12	96.5%
